Measurements of several laboratories.
Every numbered part comes from another study and shows a few of its results, in no order. Changes are numbered by the printed parent chain.
Sequence of UniProt P41743 (whole entry, looked up): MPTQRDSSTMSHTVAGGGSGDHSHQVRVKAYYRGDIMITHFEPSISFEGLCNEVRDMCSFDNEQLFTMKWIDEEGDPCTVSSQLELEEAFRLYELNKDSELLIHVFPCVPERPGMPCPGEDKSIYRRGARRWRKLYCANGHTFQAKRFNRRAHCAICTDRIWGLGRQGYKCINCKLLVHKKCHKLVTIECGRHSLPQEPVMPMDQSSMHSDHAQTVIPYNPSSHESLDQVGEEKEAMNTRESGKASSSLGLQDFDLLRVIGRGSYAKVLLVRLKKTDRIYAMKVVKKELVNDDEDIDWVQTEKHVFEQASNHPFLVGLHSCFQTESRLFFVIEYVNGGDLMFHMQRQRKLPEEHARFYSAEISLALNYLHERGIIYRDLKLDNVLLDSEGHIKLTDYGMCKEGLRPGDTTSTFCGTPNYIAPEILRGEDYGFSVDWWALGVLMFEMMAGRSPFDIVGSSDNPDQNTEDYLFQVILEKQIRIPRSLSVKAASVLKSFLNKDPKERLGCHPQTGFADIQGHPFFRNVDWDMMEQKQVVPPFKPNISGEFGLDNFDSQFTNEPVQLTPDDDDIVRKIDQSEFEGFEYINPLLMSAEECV

Block 1
Target: Histone acetyltransferase KAT6A, winged helix 2, GST fusion (KAT6A, Homo sapiens, UniProt Q92794, residues 85-181)
Technique: protein binding microarray
Molecule type: double-stranded DNA, one strand shown
Medium: in vitro
Concentration: not given
Notes: 8-mer, flanks averaged, mean of 2 arrays, mostly near background
Baseline: not given
Reading: higher = stronger binding
Target sequence (chain): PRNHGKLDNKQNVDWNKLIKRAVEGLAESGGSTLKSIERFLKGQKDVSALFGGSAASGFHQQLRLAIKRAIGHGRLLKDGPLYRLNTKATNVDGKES
Sequence | E-score
CATTCGAA | 0.0107
GCATTCGA | 0.00498
CTCAGCGA | -0.151
CTCGACCC | 0.0615
AAATCAGA | -0.00175
CACCACCG | -0.0915
TAACAGAA | -0.108
CCTGGGTC | 0.0638

Block 2
Target: ABI1, truncated, D143A, DHFR fusion (Arabidopsis thaliana, UniProt P49597)
Technique: DHFR PCA, dose-response
Medium: yeast
Notes: Hill fit, mean, not affinity
With: (+)-ABA, dose series
Reading: lower = more sensitive
Starting sequence: PYL1, truncated, DHFR fusion (Arabidopsis thaliana, UniProt Q8VZS8); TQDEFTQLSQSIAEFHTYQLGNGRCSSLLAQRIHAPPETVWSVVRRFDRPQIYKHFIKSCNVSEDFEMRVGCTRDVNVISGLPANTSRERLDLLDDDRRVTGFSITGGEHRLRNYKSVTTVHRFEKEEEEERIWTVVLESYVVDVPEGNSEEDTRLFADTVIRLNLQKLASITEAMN
Variant | ABA EC50
A170W | 380 µM
Y53H | 11.4 µM
E174I | 33.3 µM
D95V | 119 µM
L156Q | 6.82 µM
T106C | 5.54 µM
R111S | 64.9 µM
V142G | 31.4 µM

Block 3
Target: CCND3, cyclin fold, Cln2 fusion (human)
Technique: yeast growth competition, sequencing
Medium: yeast
Notes: weak parent motif
Baseline: not given
Reading: higher = stronger binding
Starting sequence: RBL1 docking peptide (human); GSAKRRLFGEDPP
Variant | normalised enrichment score
GWAKRRLFGEDPP [S2W] | 0.0416
GSAKRRLFGEDIP [P12I] | 0.126
NSAKRRLFGEDPP [G1N] | 0.0993
GSAKRRLFGEDPG [P13G] | 0.0766
GSAKRRLFGQDPP [E10Q] | 0.0432
GSAKRRLFGMDPP [E10M] | 0.205
GSAKRRLFGEDNP [P12N] | 0.0728
GSAKRILFGEDPP [R6I] | 0.143

Single results of other studies
SMILES | target | assay | setting | scale | measurement | result
CN([C@@H](Cc1ccc(OS(=O)(=O)c2cccc3cnccc23)cc1)C(=O)N1CCN(c2ccccc2)CC1)S(=O)(=O)c1cccc2cnccc12 | Protein kinase C iota type (PRKCI, Homo sapiens, UniProt P41743) | enzyme activity, inhibitor | 0.5 µM | baseline: control | remaining activity | 93.8%

A few entries again (block 1):
Sequence | E-score
AAATCAGA | -0.00175
CCTGGGTC | 0.0638
TAACAGAA | -0.108
